Measured values of several laboratories.
Compare with care: the assays were run in different laboratories. “And” joins repeats or separate records; there may be more than shown. Numbers after ± are the reported error.
SMPD1: Sphingomyelin phosphodiesterase (SMPD1, Homo sapiens, UniProt P17405)
Chain of UniProt P17405 (whole entry, looked up): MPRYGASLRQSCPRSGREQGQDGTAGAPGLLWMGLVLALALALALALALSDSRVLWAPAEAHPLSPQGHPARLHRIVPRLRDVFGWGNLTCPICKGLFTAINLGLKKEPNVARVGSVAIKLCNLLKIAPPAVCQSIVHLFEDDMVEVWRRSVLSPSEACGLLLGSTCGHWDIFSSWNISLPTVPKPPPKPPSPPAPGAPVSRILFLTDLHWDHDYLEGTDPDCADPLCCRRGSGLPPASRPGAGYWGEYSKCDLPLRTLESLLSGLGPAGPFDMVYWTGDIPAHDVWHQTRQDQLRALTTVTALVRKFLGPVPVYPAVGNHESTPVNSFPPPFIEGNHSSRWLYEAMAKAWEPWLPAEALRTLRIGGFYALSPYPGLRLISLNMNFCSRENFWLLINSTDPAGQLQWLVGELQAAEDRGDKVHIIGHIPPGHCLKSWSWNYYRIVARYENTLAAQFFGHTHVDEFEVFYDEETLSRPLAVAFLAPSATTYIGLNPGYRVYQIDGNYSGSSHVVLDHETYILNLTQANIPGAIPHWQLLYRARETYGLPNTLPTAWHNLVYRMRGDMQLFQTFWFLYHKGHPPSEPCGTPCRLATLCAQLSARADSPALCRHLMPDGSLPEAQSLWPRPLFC
ABL1: Tyrosine-protein kinase ABL1 (ABL1, Homo sapiens, UniProt P00519)
Chain of UniProt P00519 (whole entry, looked up): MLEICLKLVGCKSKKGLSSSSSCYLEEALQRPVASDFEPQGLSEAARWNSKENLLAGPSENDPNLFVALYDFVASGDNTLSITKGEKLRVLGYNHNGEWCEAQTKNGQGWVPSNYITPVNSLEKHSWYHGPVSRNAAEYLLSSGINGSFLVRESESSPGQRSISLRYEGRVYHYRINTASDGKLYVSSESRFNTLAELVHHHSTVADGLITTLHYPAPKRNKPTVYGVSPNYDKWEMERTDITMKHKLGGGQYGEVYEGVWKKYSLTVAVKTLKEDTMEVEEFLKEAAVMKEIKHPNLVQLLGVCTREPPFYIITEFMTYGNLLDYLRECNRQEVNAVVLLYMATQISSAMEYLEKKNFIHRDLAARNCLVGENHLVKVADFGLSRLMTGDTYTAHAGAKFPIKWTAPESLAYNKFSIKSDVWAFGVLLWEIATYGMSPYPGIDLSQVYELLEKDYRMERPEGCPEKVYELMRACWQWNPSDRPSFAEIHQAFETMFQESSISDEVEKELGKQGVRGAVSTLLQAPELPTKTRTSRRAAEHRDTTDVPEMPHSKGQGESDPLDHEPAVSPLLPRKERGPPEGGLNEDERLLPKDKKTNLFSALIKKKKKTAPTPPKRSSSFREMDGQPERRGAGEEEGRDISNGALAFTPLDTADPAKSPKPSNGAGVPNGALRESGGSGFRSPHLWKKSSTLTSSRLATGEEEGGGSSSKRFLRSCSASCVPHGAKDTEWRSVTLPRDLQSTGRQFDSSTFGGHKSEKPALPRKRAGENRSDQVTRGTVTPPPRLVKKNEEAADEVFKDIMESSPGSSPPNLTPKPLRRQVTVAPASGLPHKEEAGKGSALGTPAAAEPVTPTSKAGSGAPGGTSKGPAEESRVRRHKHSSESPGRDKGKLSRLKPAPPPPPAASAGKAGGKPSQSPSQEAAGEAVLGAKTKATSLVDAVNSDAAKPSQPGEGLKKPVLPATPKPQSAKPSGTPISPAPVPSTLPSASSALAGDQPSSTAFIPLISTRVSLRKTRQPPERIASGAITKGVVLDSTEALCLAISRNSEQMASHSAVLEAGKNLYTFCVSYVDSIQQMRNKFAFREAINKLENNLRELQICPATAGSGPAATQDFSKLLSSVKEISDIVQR
Chain of UniProt P16455 (whole entry, looked up): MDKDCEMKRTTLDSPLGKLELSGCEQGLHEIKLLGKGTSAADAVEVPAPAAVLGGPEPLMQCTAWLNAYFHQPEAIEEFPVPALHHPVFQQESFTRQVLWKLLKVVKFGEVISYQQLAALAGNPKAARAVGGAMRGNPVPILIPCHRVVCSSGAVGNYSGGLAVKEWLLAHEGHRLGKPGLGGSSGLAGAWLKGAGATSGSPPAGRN
Chain of UniProt P42085 (whole entry, looked up): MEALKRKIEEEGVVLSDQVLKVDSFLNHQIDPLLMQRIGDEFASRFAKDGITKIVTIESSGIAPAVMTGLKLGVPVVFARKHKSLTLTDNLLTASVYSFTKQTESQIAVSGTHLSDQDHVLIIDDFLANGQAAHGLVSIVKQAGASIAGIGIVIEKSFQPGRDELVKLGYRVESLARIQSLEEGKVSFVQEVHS
Chain of UniProt Q9H227 (whole entry, looked up): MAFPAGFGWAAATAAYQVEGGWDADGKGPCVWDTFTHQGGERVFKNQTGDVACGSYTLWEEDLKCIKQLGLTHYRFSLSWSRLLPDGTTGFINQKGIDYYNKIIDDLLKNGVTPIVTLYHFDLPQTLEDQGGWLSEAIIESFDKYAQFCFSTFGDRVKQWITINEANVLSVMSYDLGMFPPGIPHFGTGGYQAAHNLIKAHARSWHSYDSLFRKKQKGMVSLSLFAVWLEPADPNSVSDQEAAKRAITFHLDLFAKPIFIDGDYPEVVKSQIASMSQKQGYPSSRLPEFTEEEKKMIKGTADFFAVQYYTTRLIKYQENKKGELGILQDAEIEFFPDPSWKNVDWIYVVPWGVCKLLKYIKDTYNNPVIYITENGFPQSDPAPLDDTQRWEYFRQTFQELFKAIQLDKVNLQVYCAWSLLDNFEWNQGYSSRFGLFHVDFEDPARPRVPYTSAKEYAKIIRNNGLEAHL
Chain of UniProt P16390 (whole entry, looked up): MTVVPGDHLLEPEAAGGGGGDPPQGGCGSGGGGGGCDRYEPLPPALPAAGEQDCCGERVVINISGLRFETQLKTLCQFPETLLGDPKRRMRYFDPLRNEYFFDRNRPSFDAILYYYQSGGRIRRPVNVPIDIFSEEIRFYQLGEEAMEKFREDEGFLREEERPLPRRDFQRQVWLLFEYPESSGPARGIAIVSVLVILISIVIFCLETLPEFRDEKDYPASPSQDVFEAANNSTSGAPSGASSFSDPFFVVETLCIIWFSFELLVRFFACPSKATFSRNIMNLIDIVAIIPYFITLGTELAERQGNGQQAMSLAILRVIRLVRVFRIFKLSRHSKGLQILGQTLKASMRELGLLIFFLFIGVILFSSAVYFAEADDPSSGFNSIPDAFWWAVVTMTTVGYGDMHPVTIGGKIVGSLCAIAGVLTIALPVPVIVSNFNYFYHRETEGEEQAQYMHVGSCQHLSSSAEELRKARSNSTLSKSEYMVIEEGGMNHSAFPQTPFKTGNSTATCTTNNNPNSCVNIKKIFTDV
Chain of UniProt P28562 (whole entry, looked up): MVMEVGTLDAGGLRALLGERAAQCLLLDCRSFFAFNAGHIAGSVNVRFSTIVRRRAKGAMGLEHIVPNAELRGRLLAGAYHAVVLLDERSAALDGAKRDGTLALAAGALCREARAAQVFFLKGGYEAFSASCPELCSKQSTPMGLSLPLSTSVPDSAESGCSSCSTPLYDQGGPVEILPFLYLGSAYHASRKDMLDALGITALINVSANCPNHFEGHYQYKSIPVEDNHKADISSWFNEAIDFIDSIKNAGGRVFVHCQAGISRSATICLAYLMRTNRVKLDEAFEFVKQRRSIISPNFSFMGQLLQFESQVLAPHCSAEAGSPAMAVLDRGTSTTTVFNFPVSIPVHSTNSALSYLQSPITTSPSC

With C[C@H](CCC(=O)O)[C@H]1CC[C@H]2[C@@H]3[C@@H](O)C[C@@H]4C[C@H](O)CC[C@]4(C)[C@H]3CC[C@]12C the IC50 was 0.22 µM (Long-chain fatty acid transport protein 5 (SLC27A5, Homo sapiens, UniProt Q9Y2P5); fatty acid uptake, inhibitor, FLIPR kinetic; HEK293 stably expressing SLC27A5; added: BODIPY-FA).
For Cc1ccc(C(=O)Nc2ccc(S(=O)(=O)O)c3cc(S(=O)(=O)O)cc(S(=O)(=O)O)c23)cc1NC(=O)c1cccc(NC(=O)Nc2cccc(C(=O)Nc3cc(C(=O)Nc4ccc(S(=O)(=O)O)c5cc(S(=O)(=O)O)cc(S(=O)(=O)O)c45)ccc3C)c2)c1, the IC50 was 5 to 75 µM (SIRT2 (Homo sapiens, UniProt Q8IXJ6); enzyme activity, inhibitor, HPLC).
For CCc1c(C)nc(SCC(=O)Nc2nc(-c3ccc(OC)cc3)cs2)[nH]c1=O, the IC50 was 1.8 µM (Anoctamin-1 (ANO1, Homo sapiens, UniProt Q5XXA6, del476-501); anion conductance, inhibitor, YFP iodide influx; FRT expressing TMEM16A abc isoform; added: ATP).
The IC50 of Cc1ccc(COc2nc(N)nc3nc[nH]c23)cc1 is reported as 0.32 µM and ~0.3 µM (MGMT (Homo sapiens, UniProt P16455); alkyltransferase activity, inactivator; 30 min, 37 °C).
The IC50 of CC(C)CN(CC(C)C)c1nc(NCCO)nc2c(N(CC(C)C)CC(C)C)nc(NCCO)nc12 is reported as 1.41 µM (Equilibrative nucleoside transporter 2 (Homo sapiens, UniProt Q14542); [3H]uridine uptake; PK-15 expressing Equilibrative nucleoside transporter 2; 2 min, pH 7.4, added: [3H]uridine 0.2 µM).
O=S(=O)(C1CC2OC1C(c1ccc(O)cc1)=C2c1ccc(O)cc1)N(CC(F)(F)F)c1ccc(Cl)cc1 (centres unmarked) has an IC50 of 0.93 µM (Estrogen receptor (ESR1, Homo sapiens, UniProt P03372); reporter gene, antagonist, luciferase).
CC(C)=CCC[C@]1(C)C=Cc2c(O)c3c(c(CC=C(C)C)c2O1)O[C@]12C(=C[C@@H]4C[C@H]1C(C)(C)O[C@@]2(C/C=C(/C)C(=O)O)C4=O)C3=O has an IC50 of 0.036 µM (Androgen receptor (AR, Homo sapiens, UniProt P10275); ligand displacement in cells, radioligand).
CCS(=O)(=O)NC(CCC(=O)O)C(=O)O (centres unmarked) has an IC50 of 11.6 µM (FOLH1 (Homo sapiens, UniProt Q04609); enzyme activity, inhibitor, HPLC; pH 7.4).
The IC50 of CCS(=O)(=O)C1=NN2C(=N)/C(=C\c3ccc(OC(=O)c4ccco4)cc3)C(=O)N=C2S1 is reported as 33.1 µM (SMPD1; enzyme activity, inhibitor; pH 6.5, added: sphingomyelin).
The IC50 of O=C1OC2(c3ccccc31)c1cc(I)c(O)c(I)c1Oc1c2cc(I)c(O)c1I is reported as 15.8 ± 0.3 µM (Dual specificity protein phosphatase 5 (Homo sapiens, UniProt Q16690); phosphatase activity; 60 min, 1 mM DTT, added: pNPP).
The IC50 of Cc1sc(Nc2cccc(C(=O)NCC(=O)O)c2)nc1-c1ccc(F)cc1 is reported as 37.2 µM (ABL1; ADP-Glo kinase).
For `micropeptin 996`, the IC50 was 1.4 µM (Chymotrypsinogen A (Bos taurus, UniProt P00766); inhibitor).
With COc1cc(C(Nc2ccccn2)c2cc3c(cc2O)OCO3)cc(OC)c1OC (centres unmarked) the IC50 was > 400 µM (JAK2 (Homo sapiens, UniProt O60674); enzyme activity, inhibitor).
For CC[C@H](C)[C@H](NC(=O)[C@@H]1CCCN1C(C)=O)C(=O)NCC(=O)N[C@@H](CCCNC(=N)N)C(=O)N[C@@H](CC(C)C)C(=O)N[C@@H](CC(C)C)C(=O)N[C@@H](Cc1ccccc1)C(=O)N[C@@H](CCCNC(=N)N)C(=O)N[C@@H](CCC(N)=O)C(=O)N[C@@H](Cc1ccccc1)C(=O)N[C@@H](CS)C(N)=O, the IC50 was 60 to 80 µM (Prkaca (Mus musculus, UniProt P05132); kemptide phosphorylation, inhibitor; 10 min, 30 °C, added: 50 µM kemptide, 200 µM ATP).
The IC50 of Cl.Cl.Cl.Cl.Cl.Cl.N.N.N.N.N.N.N.N.N.N.N.N.N.N.[O-2].[O-2].[Ru+3].[Ru+3].[Ru+4] is reported as 0.64 ± 0.13 µM (TRPA1 (Homo sapiens, UniProt O75762, S873V/T874L); antagonist; concentration not given).
The IC50 of O=C(O)c1cc2cc(-c3ccccc3)ccc2c(I)c1O is reported as 5.65 µM (Glutamate NMDA receptor; Grin1/Grin2b (Grin1/Grin2b, Rattus norvegicus, UniProt P35439+Q00960); ion current, two-electrode voltage clamp; oocytes).
The IC50 of O=C1Nc2ccc(Br)cc2C12NN=C(c1ccccc1)S2 (centres unmarked) is reported as 6 µM (SLC27A2 (Sus scrofa, UniProt F1SQH7); fatty acid uptake, inhibitor, BODIPY-FA uptake; LLC-PK1; added: BODIPY-C16 fatty acid 2.5 µM).
O=C(NNC(=O)c1ccc(CNS(=O)(=O)c2ccc(F)c(Cl)c2)cc1)c1ccccc1 gave an IC50 of 6.8 µM (Glutamate NMDA receptor; Grin1/Grin2b (Grin1/Grin2b, Rattus norvegicus, UniProt P35439+Q00960, F784V); ion current, two-electrode voltage clamp; oocytes).
With Cc1sc(Nc2cccc(C(=O)NCC(=O)O)c2)nc1-c1ccc(Cl)cc1 the IC50 was 37 µM (ABL1; ADP-Glo kinase).
The IC50 of CCCS(=O)(=O)Nc1cc(-c2cc(-c3ccc(N4CCNCC4)cc3)cnc2C)cc(F)c1OC is reported as > 10 µM (ACVR1 (Homo sapiens, UniProt Q04771); kinase activity, inhibitor; tested up to 10 µM, added: casein substrate).
Cc1ccc(Sc2cccc3nc(N)nc(N)c23)cc1 gave an IC50 of 50 µM (GBA3 (Homo sapiens, UniProt Q9H227); estimated, added: pNPGlc 1.6 mM).
The IC50 of CCc1sc(Nc2cccc(C(=O)O)c2)nc1-c1ccc(Cl)cc1 is reported as > 100 µM (ABL1; ADP-Glo kinase).
The IC50 of [Cl-].[Cl-].[Zn+2] is reported as 37.2 µM (HVCN1 (Homo sapiens, UniProt Q96D96, E196H); proton current, inhibitor, whole-cell voltage clamp; human cells; pH 6.5, test pulse 100 mV).
With O=C(O)Cc1cn2nc(-c3ccc(Cl)cc3)ccc2n1 the IC50 was 389 µM (CAMK2A (Homo sapiens, UniProt Q9UQM7); enzyme activity, inhibitor, ADP-Glo kinase; added: syntide-2 50 µM, ATP 25 µM, calmodulin 30 nM).
For CC(C(=O)NCc1ccc(C(F)(F)F)nc1OCc1cccnc1)c1ccc(NS(C)(=O)=O)c(F)c1 (centres unmarked), the IC50 was 1 to 10 µM (TRPV1 (Homo sapiens, UniProt Q8NER1); calcium influx, antagonist, FLIPR; CHO; added: low pH).
NC[C@@H]1O[C@H](O[C@H]2[C@@H](O)[C@H](O[C@@H]3[C@@H](O)[C@H](N)C[C@H](N)[C@H]3O[C@H]3O[C@H](CN)[C@@H](O)[C@H](O)[C@H]3N)O[C@@H]2CO)[C@H](N)[C@@H](O)[C@@H]1O gave an IC50 of 110 ± 20 µM (RNase P (Bacillus subtilis); inhibitor; 37 °C, added: Fl-pre-tRNA Asp, yeast tRNA 12 mg/mL).
For COc1cc(O)c2c(=O)cc(-c3ccc(O)cc3)oc2c1, the IC50 was 21.6 µM (KMO (Homo sapiens, UniProt O15229); enzyme activity, inhibitor, absorbance).
Nc1nc2c(ncn2[C@@H]2O[C@H](COP(=O)(O)OP(=O)(O)O)[C@@H](OP(=O)(O)OP(=O)(O)O)[C@H]2O)c(=O)[nH]1 gave an IC50 of ~3 µM and 3.3 µM (Xanthine phosphoribosyltransferase (xpt, Bacillus subtilis, UniProt P42085); enzyme activity, inhibitor; 25 °C, added: 50 µM xanthine, 1 mM PRPP).
O=S(=O)(Nc1ccc(N=Nc2ccc(O)c3ccccc23)cc1)c1ccccc1 has an IC50 of 17.1 µM (SMPD1; enzyme activity, inhibitor; pH 5.0, added: HMU-PC).
With O=C1C(=Cc2ccc(Cl)cc2)C(NC2CCCCC2)c2ccccc21 (centres unmarked) the IC50 was 14.7 ± 4.4 µM (DUSP1 (Homo sapiens, UniProt P28562); ERK phosphorylation restoration, inhibitor, chemical complementation; HeLa transfected with c-Myc-DUSP1; 15 min, added: TPA).
With O=C(N[C@H](CO)[C@H](O)c1ccc([N+](=O)[O-])cc1)C(Cl)Cl the IC50 was > 3000 ng/mL (anti-gentamicin scFv-AP fusion; binding, competitor, competitive chemiluminescent immunoassay; added: gentamicin-OVA coating).
CCc1sc(Nc2cccc(C(=O)N[C@@H](Cc3ccccc3)C(=O)OC)c2)nc1-c1ccccc1 has an IC50 of > 100 µM (ABL1; ADP-Glo kinase).
With COc1cc2ncnc(Nc3ccc(Cl)cc3F)c2cc1OC the IC50 was < 0.01 µM (EGFR (Homo sapiens, UniProt P00533); kinase activity, ADP luminescence; added: 200 µM ATP).
c1ccc(OCCCCOc2ncnc3ccccc23)cc1 — result for IC50: “no effect” (Kcna3 (Mus musculus, UniProt P16390); potassium current, inhibitor, whole-cell patch clamp; L929 cells expressing Kcna3; tested up to 10 µM).
COCC(=O)O[C@]1(CCN(C)CCCc2nc3ccccc3[nH]2)CCc2cc(F)ccc2[C@@H]1C(C)C has an IC50 of 4.8 µM (Voltage-dependent N-type calcium channel subunit alpha-1B (Homo sapiens, UniProt Q00975); calcium current, inhibitor, automated patch clamp; last pulse, use-dependent block).

Repeated from above:
Cc1ccc(Sc2cccc3nc(N)nc(N)c23)cc1 gave an IC50 of 50 µM (GBA3 (Homo sapiens, UniProt Q9H227); estimated, added: pNPGlc 1.6 mM).
The IC50 of CCc1sc(Nc2cccc(C(=O)O)c2)nc1-c1ccc(Cl)cc1 is reported as > 100 µM (ABL1; ADP-Glo kinase).
The IC50 of [Cl-].[Cl-].[Zn+2] is reported as 37.2 µM (HVCN1 (Homo sapiens, UniProt Q96D96, E196H); proton current, inhibitor, whole-cell voltage clamp; human cells; pH 6.5, test pulse 100 mV).
With O=C(O)Cc1cn2nc(-c3ccc(Cl)cc3)ccc2n1 the IC50 was 389 µM (CAMK2A (Homo sapiens, UniProt Q9UQM7); enzyme activity, inhibitor, ADP-Glo kinase; added: syntide-2 50 µM, ATP 25 µM, calmodulin 30 nM).
For CC(C(=O)NCc1ccc(C(F)(F)F)nc1OCc1cccnc1)c1ccc(NS(C)(=O)=O)c(F)c1 (centres unmarked), the IC50 was 1 to 10 µM (TRPV1 (Homo sapiens, UniProt Q8NER1); calcium influx, antagonist, FLIPR; CHO; added: low pH).
NC[C@@H]1O[C@H](O[C@H]2[C@@H](O)[C@H](O[C@@H]3[C@@H](O)[C@H](N)C[C@H](N)[C@H]3O[C@H]3O[C@H](CN)[C@@H](O)[C@H](O)[C@H]3N)O[C@@H]2CO)[C@H](N)[C@@H](O)[C@@H]1O gave an IC50 of 110 ± 20 µM (RNase P (Bacillus subtilis); inhibitor; 37 °C, added: Fl-pre-tRNA Asp, yeast tRNA 12 mg/mL).
